Assay results collected from several papers.
Every numbered part comes from another study and shows a few of its results, in no order. Values joined by “and” are separate records of one study, mostly repeats; a detail may differ.
UniProt P49336, sequence (whole entry, looked up): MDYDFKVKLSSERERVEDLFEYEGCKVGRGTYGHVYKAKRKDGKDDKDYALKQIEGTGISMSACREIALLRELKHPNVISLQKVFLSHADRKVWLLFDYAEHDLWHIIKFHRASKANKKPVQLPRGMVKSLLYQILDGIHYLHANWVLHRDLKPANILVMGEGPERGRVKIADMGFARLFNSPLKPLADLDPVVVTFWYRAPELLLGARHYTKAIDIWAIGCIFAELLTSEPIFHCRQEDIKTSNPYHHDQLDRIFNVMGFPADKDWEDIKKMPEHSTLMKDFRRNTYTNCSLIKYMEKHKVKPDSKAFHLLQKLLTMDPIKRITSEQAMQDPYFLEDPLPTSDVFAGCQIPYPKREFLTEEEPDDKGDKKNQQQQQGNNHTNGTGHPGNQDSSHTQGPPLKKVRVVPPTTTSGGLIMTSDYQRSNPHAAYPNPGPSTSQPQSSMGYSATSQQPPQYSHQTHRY
UniProt O00329, sequence (whole entry, looked up): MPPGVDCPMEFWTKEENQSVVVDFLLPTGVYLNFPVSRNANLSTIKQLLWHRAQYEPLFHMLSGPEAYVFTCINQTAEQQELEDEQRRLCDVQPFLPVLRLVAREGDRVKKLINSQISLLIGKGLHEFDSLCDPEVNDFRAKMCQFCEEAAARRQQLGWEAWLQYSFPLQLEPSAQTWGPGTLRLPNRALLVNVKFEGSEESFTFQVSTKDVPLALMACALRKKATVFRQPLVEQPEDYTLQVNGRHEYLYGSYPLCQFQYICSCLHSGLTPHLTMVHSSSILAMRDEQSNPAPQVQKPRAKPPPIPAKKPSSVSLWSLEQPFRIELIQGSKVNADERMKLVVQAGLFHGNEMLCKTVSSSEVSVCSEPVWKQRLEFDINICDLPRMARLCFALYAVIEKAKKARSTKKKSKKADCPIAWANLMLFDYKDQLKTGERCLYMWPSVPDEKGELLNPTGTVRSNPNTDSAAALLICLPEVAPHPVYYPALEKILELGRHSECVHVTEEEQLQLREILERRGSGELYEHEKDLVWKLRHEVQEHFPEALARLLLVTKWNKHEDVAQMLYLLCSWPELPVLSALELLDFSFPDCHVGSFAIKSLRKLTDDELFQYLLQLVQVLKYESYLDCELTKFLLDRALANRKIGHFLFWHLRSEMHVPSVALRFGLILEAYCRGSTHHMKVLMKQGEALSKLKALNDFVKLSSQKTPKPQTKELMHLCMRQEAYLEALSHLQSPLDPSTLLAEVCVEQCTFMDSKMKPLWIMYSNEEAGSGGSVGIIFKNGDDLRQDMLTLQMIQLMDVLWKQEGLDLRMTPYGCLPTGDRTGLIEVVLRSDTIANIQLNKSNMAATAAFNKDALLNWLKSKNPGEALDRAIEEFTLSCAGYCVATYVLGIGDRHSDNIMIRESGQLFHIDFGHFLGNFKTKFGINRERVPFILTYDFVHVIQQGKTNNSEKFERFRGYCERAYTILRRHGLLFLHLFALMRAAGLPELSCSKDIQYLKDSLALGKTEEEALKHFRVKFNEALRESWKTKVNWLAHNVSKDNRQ
UniProt Q00535, sequence (whole entry, looked up): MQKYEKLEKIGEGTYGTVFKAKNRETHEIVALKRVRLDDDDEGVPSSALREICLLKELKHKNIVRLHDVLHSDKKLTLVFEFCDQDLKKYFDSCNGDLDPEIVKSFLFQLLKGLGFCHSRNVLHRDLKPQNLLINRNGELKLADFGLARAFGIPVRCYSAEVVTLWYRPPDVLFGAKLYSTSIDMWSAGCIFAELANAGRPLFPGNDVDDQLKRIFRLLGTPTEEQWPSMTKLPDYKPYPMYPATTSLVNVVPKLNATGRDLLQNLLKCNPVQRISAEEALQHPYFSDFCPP
UniProt Q9UK32, sequence (whole entry, looked up): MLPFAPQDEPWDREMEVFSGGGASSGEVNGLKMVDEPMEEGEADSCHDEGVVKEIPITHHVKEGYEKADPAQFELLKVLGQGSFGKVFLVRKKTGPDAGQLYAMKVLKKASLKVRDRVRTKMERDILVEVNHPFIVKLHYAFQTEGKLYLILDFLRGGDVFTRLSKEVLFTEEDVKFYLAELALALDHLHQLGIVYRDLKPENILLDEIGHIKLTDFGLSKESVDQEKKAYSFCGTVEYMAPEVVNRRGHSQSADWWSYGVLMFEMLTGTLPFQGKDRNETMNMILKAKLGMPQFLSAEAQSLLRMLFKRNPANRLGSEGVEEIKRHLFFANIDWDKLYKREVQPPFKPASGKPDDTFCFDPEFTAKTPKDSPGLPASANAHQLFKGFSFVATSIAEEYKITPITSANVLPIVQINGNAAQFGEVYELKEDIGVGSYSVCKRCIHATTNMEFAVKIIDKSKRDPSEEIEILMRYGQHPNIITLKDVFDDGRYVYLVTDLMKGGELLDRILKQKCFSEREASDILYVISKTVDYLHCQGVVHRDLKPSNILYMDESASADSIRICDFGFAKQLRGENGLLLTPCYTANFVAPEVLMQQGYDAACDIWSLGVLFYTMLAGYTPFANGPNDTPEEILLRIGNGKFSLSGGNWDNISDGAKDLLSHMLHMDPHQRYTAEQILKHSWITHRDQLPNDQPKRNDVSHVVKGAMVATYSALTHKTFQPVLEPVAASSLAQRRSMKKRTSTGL
UniProt P37023, sequence (whole entry, looked up): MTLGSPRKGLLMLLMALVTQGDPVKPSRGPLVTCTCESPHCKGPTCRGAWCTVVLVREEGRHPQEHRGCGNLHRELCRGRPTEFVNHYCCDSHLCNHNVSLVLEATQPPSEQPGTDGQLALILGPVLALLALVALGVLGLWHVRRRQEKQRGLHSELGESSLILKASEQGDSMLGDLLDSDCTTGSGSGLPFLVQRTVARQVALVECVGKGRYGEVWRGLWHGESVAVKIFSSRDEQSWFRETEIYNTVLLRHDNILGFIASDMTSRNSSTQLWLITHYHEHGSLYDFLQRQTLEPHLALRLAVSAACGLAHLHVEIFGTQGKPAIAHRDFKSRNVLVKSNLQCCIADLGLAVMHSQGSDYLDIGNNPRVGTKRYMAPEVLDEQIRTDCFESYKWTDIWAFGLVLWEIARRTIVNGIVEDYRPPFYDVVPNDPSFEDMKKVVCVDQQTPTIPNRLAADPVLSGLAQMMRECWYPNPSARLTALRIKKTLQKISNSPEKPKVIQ
UniProt Q9BVS4, sequence (whole entry, looked up): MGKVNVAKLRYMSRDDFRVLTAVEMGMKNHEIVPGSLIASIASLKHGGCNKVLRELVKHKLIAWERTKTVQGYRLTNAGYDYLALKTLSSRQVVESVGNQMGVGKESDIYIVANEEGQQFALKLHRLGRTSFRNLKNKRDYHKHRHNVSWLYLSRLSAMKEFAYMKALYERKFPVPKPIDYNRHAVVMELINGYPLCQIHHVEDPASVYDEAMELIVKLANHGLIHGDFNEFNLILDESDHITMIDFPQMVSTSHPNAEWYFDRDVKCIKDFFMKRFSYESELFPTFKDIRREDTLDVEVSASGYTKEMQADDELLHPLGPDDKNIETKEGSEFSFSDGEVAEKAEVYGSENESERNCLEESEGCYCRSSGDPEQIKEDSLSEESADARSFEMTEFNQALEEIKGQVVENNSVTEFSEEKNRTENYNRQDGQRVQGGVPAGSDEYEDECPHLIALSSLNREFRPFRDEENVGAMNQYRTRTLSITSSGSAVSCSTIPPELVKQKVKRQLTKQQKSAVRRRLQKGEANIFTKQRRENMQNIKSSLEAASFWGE

Study 1
SMILES: O=C(Nc1ccccc1)Nc1cccc(Oc2ccc3nccn3n2)c1
Method: competitive binding panel
Tested at: 1 µM
Reference: vehicle
For PIK3CD (Homo sapiens, UniProt O00329): remaining binding read 86%.
The remaining binding was 90% (EPHB4 (Homo sapiens, UniProt P54760)).
ABL2 (Homo sapiens, UniProt P42684) — remaining binding: 69%.
For STK32A (Homo sapiens, UniProt Q8WU08); measured: YANK1: remaining binding read 100%.
COQ8B (Homo sapiens, UniProt Q96D53); measured: ADCK4 — remaining binding: 82%.

Study 2
SMILES: O=C(O)c1ccc2c3c1cccc3c(=O)n1c3ccccc3nc21
Read-out: enzyme activity
Mode: inhibitor
Tested at: 0.5 µM
It gave 94.5% for remaining activity (EPHB3 (Homo sapiens, UniProt P54753); reference: control).
The remaining activity was 99.7% (ERBB2 (Homo sapiens, UniProt P04626); reference: control).
ACVRL1 (Homo sapiens, UniProt P37023); reference: control — remaining activity: 103%.
The remaining activity was 101% (ARAF (Homo sapiens, UniProt P10398)).
It gave 79.5% for remaining activity (MARK1 (Homo sapiens, UniProt Q9P0L2); reference: control).
For PIM1 (Homo sapiens, UniProt P11309); reference: control: remaining activity read 59.5%.
It gave 88% for remaining activity (Cyclin-dependent kinase 5, with p35 (CDK5, Homo sapiens, UniProt Q00535); reference: control).

Study 3
Read-out: AlphaScreen signal
Method: AlphaScreen counter screen
Sample: His6 peptide without bromodomain
Tested at: 50 µM
Setting: assay interference check
For `Nc1nc(NCc2ccccc2)c2nc[nH]c2n1`, the inhibition was 69.8%.
`CN1CC[C@H](c2c(O)cc(O)c3c(=O)cc(-c4ccccc4Cl)oc23)[C@H](O)C1` gave an inhibition of 35.8% and 44%.
`Cc1cccc(-c2nc(C(C)(C)C)[nH]c2-c2ccc3c(c2)OCO3)n1` has an inhibition of 33.9%.
With `COC(=O)C(C)Sc1ccc2nnc(-c3cccc(F)c3)n2n1` (centres unmarked) the inhibition was 9.9%.
`COc1ccc(Nc2ncc3c(n2)CCN(C(=O)OC(C)(C)C)C3)cc1` gave an inhibition of 30.8%.
The inhibition of `Cc1ccc(Nc2nccc(N(C)c3ccc4c(C)n(C)nc4c3)n2)cc1S(N)(=O)=O` is reported as 32.1%.

Study 4
Compound: CCCCN(CCCC)C(=O)CN1C[C@@H](c2cc(OC)c3c(c2)OCO3)[C@H](C(=O)O)[C@H]1CC(C)(C)CCC
Read-out: cell-free assay
Method: competition with immobilised ligand
Tested at: 1 µM
The remaining binding was 83.2% (RIOK2 (Homo sapiens, UniProt Q9BVS4)).
It gave 100% for remaining binding (BMP2K (Homo sapiens, UniProt Q9NSY1)).
For Ribosomal protein S6 kinase alpha-6, C-terminal kinase domain (RPS6KA6, Homo sapiens, UniProt Q9UK32): remaining binding read 79.2%.
It gave 99.6% for remaining binding (MAP4K1 (Homo sapiens, UniProt Q92918)).
It gave 78% for remaining binding (CDK8 (Homo sapiens, UniProt P49336)).

For quick reference, copied from above (study 2):
For PIM1 (Homo sapiens, UniProt P11309); reference: control: remaining activity read 59.5%.
It gave 94.5% for remaining activity (EPHB3 (Homo sapiens, UniProt P54753); reference: control).
The remaining activity was 99.7% (ERBB2 (Homo sapiens, UniProt P04626); reference: control).
It gave 79.5% for remaining activity (MARK1 (Homo sapiens, UniProt Q9P0L2); reference: control).
